Assay results pooled from the literature.
Numbered parts are unrelated; each lists some results of a single study. Several values in a cell are separate wells, animals, samples, runs or records.
Sequence of UniProt P42336 (whole entry, unmodified, looked up): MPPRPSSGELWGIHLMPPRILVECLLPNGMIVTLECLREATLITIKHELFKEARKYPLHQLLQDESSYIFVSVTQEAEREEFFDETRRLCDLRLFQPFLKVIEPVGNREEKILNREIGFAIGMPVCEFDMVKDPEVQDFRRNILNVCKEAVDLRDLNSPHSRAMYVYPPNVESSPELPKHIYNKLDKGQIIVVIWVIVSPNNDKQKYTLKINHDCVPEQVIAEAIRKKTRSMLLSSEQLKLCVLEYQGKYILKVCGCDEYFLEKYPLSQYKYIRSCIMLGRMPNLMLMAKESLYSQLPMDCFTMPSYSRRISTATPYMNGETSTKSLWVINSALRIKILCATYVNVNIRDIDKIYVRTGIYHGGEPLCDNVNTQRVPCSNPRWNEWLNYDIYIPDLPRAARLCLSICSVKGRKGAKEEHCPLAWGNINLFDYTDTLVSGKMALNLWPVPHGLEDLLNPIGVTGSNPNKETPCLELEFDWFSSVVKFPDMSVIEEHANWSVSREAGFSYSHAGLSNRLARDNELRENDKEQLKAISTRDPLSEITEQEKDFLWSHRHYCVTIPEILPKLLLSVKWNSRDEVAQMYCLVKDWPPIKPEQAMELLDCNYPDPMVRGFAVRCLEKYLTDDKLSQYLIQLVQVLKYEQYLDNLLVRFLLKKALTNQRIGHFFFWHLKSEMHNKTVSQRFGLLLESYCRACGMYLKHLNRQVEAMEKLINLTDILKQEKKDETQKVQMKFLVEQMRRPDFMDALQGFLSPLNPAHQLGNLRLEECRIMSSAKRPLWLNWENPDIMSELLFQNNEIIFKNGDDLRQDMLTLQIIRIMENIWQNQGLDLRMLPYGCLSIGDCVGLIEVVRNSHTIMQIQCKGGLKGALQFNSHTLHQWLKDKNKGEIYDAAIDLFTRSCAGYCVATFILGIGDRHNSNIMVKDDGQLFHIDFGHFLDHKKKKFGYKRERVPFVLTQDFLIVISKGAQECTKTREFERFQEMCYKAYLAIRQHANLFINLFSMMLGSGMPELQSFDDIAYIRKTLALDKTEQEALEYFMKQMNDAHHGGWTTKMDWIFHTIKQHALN
Sequence of UniProt P29317 (whole entry, looked up): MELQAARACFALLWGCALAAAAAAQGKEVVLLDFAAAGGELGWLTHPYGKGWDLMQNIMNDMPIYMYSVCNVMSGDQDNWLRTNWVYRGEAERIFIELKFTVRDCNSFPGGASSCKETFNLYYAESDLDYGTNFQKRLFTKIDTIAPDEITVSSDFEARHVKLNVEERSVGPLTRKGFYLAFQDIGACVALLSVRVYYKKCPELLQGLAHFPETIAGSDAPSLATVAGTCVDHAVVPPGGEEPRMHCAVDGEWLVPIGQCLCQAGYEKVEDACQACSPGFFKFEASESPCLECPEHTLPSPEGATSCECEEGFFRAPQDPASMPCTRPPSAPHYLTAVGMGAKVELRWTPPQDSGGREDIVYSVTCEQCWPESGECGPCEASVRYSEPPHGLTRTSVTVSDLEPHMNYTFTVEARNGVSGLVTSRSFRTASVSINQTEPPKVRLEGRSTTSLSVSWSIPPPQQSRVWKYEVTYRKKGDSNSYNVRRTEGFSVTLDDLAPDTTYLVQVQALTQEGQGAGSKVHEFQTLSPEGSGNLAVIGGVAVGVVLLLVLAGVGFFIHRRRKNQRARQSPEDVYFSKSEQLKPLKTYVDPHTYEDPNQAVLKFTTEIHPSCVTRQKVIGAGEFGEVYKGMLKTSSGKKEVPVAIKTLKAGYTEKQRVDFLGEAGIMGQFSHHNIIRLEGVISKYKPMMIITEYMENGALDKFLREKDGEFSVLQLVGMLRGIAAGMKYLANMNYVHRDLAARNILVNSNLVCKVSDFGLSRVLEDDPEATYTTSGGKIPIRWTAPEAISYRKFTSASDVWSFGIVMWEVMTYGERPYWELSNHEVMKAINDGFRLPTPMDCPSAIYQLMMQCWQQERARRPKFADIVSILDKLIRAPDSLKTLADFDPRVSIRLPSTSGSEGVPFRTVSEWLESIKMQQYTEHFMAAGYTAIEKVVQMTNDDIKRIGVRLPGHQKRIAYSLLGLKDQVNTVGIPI
Sequence of UniProt Q9UBF8 (whole entry, looked up): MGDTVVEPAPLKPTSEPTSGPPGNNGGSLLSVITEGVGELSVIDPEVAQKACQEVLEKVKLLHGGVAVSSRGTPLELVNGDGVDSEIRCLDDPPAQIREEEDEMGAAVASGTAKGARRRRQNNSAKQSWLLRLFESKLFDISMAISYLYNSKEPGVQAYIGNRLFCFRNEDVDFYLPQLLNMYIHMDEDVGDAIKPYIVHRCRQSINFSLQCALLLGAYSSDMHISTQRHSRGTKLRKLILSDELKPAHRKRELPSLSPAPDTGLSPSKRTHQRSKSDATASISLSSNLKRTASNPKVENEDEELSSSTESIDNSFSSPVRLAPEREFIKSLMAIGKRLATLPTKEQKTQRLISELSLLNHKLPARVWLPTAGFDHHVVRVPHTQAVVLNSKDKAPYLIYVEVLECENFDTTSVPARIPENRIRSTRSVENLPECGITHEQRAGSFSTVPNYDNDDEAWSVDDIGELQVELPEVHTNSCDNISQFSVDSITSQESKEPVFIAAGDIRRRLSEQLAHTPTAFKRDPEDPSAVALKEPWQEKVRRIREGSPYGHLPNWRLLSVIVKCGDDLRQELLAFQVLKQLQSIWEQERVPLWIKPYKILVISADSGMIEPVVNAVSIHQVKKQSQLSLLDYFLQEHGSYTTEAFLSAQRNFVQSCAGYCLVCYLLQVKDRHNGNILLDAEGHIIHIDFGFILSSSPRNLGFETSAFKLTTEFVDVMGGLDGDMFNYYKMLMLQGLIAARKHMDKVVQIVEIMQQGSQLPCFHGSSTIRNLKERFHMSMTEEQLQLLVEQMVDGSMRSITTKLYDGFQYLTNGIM
Sequence of UniProt Q9NRH2 (whole entry, looked up): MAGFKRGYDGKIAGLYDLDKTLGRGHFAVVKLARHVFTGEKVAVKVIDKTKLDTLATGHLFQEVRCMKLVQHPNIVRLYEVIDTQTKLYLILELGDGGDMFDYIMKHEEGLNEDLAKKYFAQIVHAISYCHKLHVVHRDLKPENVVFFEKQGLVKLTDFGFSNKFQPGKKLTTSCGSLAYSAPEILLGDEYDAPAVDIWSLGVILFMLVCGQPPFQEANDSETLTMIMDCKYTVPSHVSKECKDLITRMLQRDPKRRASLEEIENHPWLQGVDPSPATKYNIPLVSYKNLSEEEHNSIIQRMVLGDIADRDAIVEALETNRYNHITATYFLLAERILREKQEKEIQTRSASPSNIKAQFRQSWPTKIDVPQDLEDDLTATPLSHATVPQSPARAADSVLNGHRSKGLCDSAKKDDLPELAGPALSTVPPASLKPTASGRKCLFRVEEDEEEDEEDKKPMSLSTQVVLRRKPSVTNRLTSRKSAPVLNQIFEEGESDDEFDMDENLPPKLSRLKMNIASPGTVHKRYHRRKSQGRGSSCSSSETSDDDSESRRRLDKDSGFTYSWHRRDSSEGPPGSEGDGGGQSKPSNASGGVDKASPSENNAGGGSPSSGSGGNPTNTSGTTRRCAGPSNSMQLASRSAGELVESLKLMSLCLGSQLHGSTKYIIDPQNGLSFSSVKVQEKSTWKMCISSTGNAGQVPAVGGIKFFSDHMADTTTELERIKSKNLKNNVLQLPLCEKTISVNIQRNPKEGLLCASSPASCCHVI
Sequence of UniProt P23458 (whole entry, looked up): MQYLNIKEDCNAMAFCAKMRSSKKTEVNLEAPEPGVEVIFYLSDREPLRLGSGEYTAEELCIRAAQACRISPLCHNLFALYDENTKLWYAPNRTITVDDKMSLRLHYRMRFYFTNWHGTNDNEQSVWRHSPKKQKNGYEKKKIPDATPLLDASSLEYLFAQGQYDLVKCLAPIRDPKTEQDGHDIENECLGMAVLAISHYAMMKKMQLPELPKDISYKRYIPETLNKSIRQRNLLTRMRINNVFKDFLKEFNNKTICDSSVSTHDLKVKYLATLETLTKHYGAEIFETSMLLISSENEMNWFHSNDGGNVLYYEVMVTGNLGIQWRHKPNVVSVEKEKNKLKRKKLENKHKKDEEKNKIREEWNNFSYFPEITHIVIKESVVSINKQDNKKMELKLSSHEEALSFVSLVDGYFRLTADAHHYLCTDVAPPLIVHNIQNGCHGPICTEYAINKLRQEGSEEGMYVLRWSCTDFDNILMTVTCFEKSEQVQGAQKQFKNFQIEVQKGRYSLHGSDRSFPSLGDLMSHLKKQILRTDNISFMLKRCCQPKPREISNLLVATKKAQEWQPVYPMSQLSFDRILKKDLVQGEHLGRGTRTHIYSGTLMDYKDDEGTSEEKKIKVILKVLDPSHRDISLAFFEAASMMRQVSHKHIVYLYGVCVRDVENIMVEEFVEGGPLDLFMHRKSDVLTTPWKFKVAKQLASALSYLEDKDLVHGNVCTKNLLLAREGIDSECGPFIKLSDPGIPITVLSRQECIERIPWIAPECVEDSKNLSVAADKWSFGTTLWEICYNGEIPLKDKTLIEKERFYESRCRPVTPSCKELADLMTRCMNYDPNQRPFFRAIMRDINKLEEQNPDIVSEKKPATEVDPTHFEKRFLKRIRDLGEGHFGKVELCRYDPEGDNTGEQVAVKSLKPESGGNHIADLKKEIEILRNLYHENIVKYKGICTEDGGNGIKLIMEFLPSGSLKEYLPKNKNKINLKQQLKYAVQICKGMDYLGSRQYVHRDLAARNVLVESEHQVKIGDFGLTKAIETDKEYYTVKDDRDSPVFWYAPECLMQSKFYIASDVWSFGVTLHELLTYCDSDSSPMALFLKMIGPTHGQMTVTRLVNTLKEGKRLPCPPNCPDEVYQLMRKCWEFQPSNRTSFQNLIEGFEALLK

Series 1 — species: C57BL/6 CES1-/- mice, EL4 tumour; medium: EL4 tumour; route: subcutaneous; dose: 0.3 mg/kg/day DON equivalent; time: 5 days
Compound: CC(=O)N[C@@H](Cc1c[nH]c2ccccc12)C(=O)N[C@@H](CCC(=O)C=[N+]=[N-])C(=O)OC(C)C
assay	conditions	scale	metabolite peak intensity
LC-MS/MS metabolomics, item: methionine sulfone	–	higher = more metabolite	64500 a.u. and 81300 a.u. and 156000 a.u. and 246000 a.u.
LC-MS/MS metabolomics, item: phosphoenolpyruvate	–	higher = more metabolite	278000 a.u. and 273000 a.u. and 132000 a.u. and 515000 a.u. and 244000 a.u. and 281000 a.u.
UPLC-MS/MS metabolomics, item: N-acetylmethionine	normalised to tissue mass	higher = more metabolite	8.76e+06 a.u. and 7.82e+06 a.u. and 1.02e+07 a.u. and 9.36e+06 a.u. and 8.24e+06 a.u. and 9.53e+06 a.u.
UPLC-MS/MS, item: 5-hydroxylysine	–	–	1.83e+06 a.u. and 1.63e+06 a.u. and 1.84e+06 a.u. and 1.37e+06 a.u. and 2.36e+06 a.u. and 2.46e+06 a.u.
LC-MS/MS metabolomics, item: 2-hydroxybutyrate/2-hydroxyisobutyrate	normalised to tissue mass	higher = more metabolite	9.13e+06 a.u. and 8.06e+06 a.u. and 1.16e+07 a.u. and 6.12e+06 a.u. and 6.74e+06 a.u. and 9.04e+06 a.u.

Series 2 — read-out: enzyme activity; action: inhibitor; tested at: 0.5 µM; relative to: control
Compound: O=C1NC(=O)C(c2c[nH]c3ccccc23)=C1c1c[nH]c2ccccc12
target	remaining activity
CLK2 (Homo sapiens, UniProt P49760)	46.7%
SRPK1 (Homo sapiens, UniProt Q96SB4)	89.4%
MAP3K20 (Homo sapiens, UniProt Q9NYL2)	107%
TYRO3 (Homo sapiens, UniProt Q06418)	101%
Cyclin-dependent kinase 2, with cyclin E (CDK2, Homo sapiens, UniProt P24941)	71.4%
MUSK (Homo sapiens, UniProt O15146)	76.4%
CSNK1D (Homo sapiens, UniProt P48730)	95.7%
FLT1 (Homo sapiens, UniProt P17948)	53.9%
PAK6 (Homo sapiens, UniProt Q9NQU5)	92.4%
PRKCQ (Homo sapiens, UniProt Q04759)	33.8%
IGF1R (Homo sapiens, UniProt P08069)	80%
PAK1 (Homo sapiens, UniProt Q13153)	83.5%
SGK2 (Homo sapiens, UniProt Q9HBY8)	90.5%
EPHA2 (Homo sapiens, UniProt P29317)	91.6%
CAMKK1 (Homo sapiens, UniProt Q8N5S9)	114%
SIK2 (Homo sapiens, UniProt Q9H0K1)	102%
RPS6KA3 (Homo sapiens, UniProt P51812)	46.6%
CAMK1 (Homo sapiens, UniProt Q14012)	105%
JAK1 (Homo sapiens, UniProt P23458)	101%
PRKCZ (Homo sapiens, UniProt Q05513)	96.2%
TEC (Homo sapiens, UniProt P42680)	145%
CSNK1E (Homo sapiens, UniProt P49674)	92.4%

Series 3 — medium: plasma; route: intravenous; dose: 1.0 mg/kg
Structure (SMILES): O=C1CCC(N2Cc3cc(C4CCN(Cc5ccccc5)CC4)ccc3C2=O)C(=O)N1 (stereo not shown)
test system	terminal volume of distribution [L/kg]
ICR mice, male	13.4
Sprague Dawley rats, male	18.8
Sprague Dawley rat, male	21.3

Series 4 — technique: competition with immobilised ligand; tested at: 0.1 µM
SMILES: Cn1cc(Cl)c2c(Oc3c(F)cc(Nc4cc(Cl)nc(N)n4)cc3F)ccnc21
target	assay	remaining binding [%]
SNRK (Homo sapiens, UniProt Q9NRH2)	cell-free assay	86
MATK (Homo sapiens, UniProt P42679)	cell-free assay	97
EPHA2 (Homo sapiens, UniProt P29317)	cell-free assay	100
PLK2 (Homo sapiens, UniProt Q9NYY3)	cell-free assay	83
AKT2 (Homo sapiens, UniProt P31751)	cell-free assay	100
PRKD1 (Homo sapiens, UniProt Q15139)	cell-free assay	74
MAP3K13 (Homo sapiens, UniProt O43283)	cell-free assay	99
PIK3C2B (Homo sapiens, UniProt O00750)	cell-free assay	83
FLT3 (Homo sapiens, UniProt P36888, D835Y)	cell-free assay	99
PRKCE (Homo sapiens, UniProt Q02156)	cell-free assay	91
EGFR (Homo sapiens, UniProt P00533, del752-759)	cell-free assay	52
PAK5 (Homo sapiens, UniProt Q9P286)	cell-free assay	90
Myosin-IIIa (MYO3A, Homo sapiens, UniProt Q8NEV4)	binding	100
MARK3 (Homo sapiens, UniProt P27448)	cell-free assay	83
STK36 (Homo sapiens, UniProt Q9NRP7)	cell-free assay	93
DSTYK (Homo sapiens, UniProt Q6XUX3)	cell-free assay	98
BMP2K (Homo sapiens, UniProt Q9NSY1)	cell-free assay	100
LTK (Homo sapiens, UniProt P29376)	cell-free assay	87
PIK3CA (Homo sapiens, UniProt P42336, M1043I)	cell-free assay	64
MAP4K5 (Homo sapiens, UniProt Q9Y4K4)	cell-free assay	91
PI4KB (Homo sapiens, UniProt Q9UBF8)	cell-free assay	100
PIK3CA (Homo sapiens, UniProt P42336)	cell-free assay	79
STK17A (Homo sapiens, UniProt Q9UEE5)	cell-free assay	94
PRKAA1 (Homo sapiens, UniProt Q13131)	cell-free assay	100
NEK3 (Homo sapiens, UniProt P51956)	cell-free assay	91

Excerpt of the above (series 4):
target	assay	remaining binding [%]
PAK5 (Homo sapiens, UniProt Q9P286)	cell-free assay	90
Myosin-IIIa (MYO3A, Homo sapiens, UniProt Q8NEV4)	binding	100
MARK3 (Homo sapiens, UniProt P27448)	cell-free assay	83
STK36 (Homo sapiens, UniProt Q9NRP7)	cell-free assay	93
DSTYK (Homo sapiens, UniProt Q6XUX3)	cell-free assay	98
BMP2K (Homo sapiens, UniProt Q9NSY1)	cell-free assay	100
LTK (Homo sapiens, UniProt P29376)	cell-free assay	87
PIK3CA (Homo sapiens, UniProt P42336, M1043I)	cell-free assay	64
MAP4K5 (Homo sapiens, UniProt Q9Y4K4)	cell-free assay	91
